# Assay results of several laboratories.
# Each line is one published result; not all experiments were run side by side. Several values in a cell are separate wells, animals, samples, runs or records. ± gives the spread as reported.
Structure (SMILES),tested on,test,system,conditions,scale,quantity,result
C=CC(=O)N1[C@H](c2ccc3c(c2)OCO3)c2[nH]c3ccccc3c2C[C@@H]1C(=O)NC1CC1,PTGES2 Cys113 human,"cysteine IA-DTB labelling, covalent inhibitor, MS-ABPP",22Rv1,"20 µM, 3 h",,inhibition,82%
c1ccc(-c2n[nH]cc2-c2ccnc3ccccc23)nc1,YAK1 (Candida albicans),"kinase binding, MIB/MS competition",Candida albicans lysate,10 µM,relative to: DMSO,log2 fold change,-0.42
C[n+]1ccc(/C=N/NC(=O)c2cccc(C(=O)N/N=C/c3cc[n+](C)cc3)c2)cc1,22CTA telomeric G4-DNA antiparallel,FRET melting,,"1 µM, K10 buffer, DNA 0.2 µM, with: ds26 10 µM",,ΔTm,1.8 ± 0.3 °C
O=c1c(Oc2ccccc2)c(C(F)(F)F)oc2c(O)c(O)ccc12,ROC1-CUL1 E3 subcomplex,Cdc34-ubiquitin discharge,,100 µM,relative to: input,Cdc34b-ubiquitin remaining,21%
O=C(N/N=C/c1cc[n+](Cc2ccccc2)c2ccccc12)c1cccc(C(=O)N/N=C/c2cc[n+](Cc3ccccc3)c3ccccc23)n1,22CTA telomeric G4-DNA antiparallel,FRET melting,,"1 µM, K10 buffer, DNA 0.2 µM",,ΔTm,17.8 ± 0.6 °C
O=c1c(-c2cnn(-c3ccc(Cl)cc3)c2)c(C(F)(F)F)oc2c(O)c(O)ccc12,ROC1-CUL1 E3 subcomplex,Cdc34-ubiquitin discharge,,75 µM,relative to: input,Cdc34b-ubiquitin remaining,4.5%
C=CC(=O)N1[C@H](c2ccc3c(c2)OCO3)c2[nH]c3ccccc3c2C[C@@H]1C(=O)N1CCN(C)CC1,human cyclin E1 N112C-3xFLAG:CDK2,"co-IP with TMT proteomics, refers to: TUBB",,"concentration not given, P07437",relative to: wild type DMSO,relative co-enrichment,117%
Cc1cn(CC(=O)N(CC(=O)N[C@H]2CCC[C@@H]2N(CC(=O)N[C@H]2COC[C@@H]2N(CC(=O)N[C@H]2COC[C@@H]2N(CC(=O)N[C@H]2COC[C@@H]2N(CC(=O)NCCOCCOCC(N)=O)C(=O)Cn2cnc3c(N)ncnc32)C(=O)Cn2cc(C)c(=O)[nH]c2=O)C(=O)Cn2cnc3c(N)ncnc32)C(=O)Cn2cnc3c(=O)[nH]c(N)nc32)[C@H]2CCC[C@@H]2NC(=O)CN(C(=O)Cn2cnc3c(=O)[nH]c(N)nc32)[C@H]2CCC[C@@H]2NC(=O)CN(C(=O)Cn2cc(C)c(=O)[nH]c2=O)[C@H]2COC[C@@H]2NC(=O)CN(C(=O)Cn2cnc3c(N)ncnc32)[C@H]2COC[C@@H]2NC(=O)CN(C(=O)Cn2cnc3c(=O)[nH]c(N)nc32)[C@H]2COC[C@@H]2N)c(=O)[nH]c1=O,mismatched RNA TU,"duplex formation, UV melting",,,relative to: complementary RNA,ΔTm,-19.7 °C
C[n+]1ccc(/C=N/NC(=O)C(=O)N/N=C/c2cc[n+](C)cc2)cc1,22CTA telomeric G4-DNA antiparallel,FRET melting,,"1 µM, K10 buffer, DNA 0.2 µM, with: ds26 10 µM",,ΔTm,2.1 ± 2.5 °C
Nc1ncc(-c2cc(-c3cnn(CC(F)(F)F)c3)ncc2F)nc1C(=O)NC1CNCC(F)C1 (stereo not shown),AMPK-alpha2,KINOMEscan competition binding,,1 µM,relative to: DMSO control,remaining binding,63%
C=CC(=O)Nc1cccc(Cn2ncc3cnc(Nc4cnn(CCOC)c4)nc32)c1,MAP3K15 human,"binding, KINOMEscan",,100 nM,lower = stronger binding,percent of control,94%
Cc1ncsc1-c1ccc(C(C)NC(=O)C2CC(O)CN2C(=O)C(NC(=O)CCCCCCCCCCN2CCCC(Nc3ncc(Cl)c(Nc4ccccc4S(=O)(=O)C(C)C)n3)C2)C(C)(C)C)cc1 (stereo not shown),22Rv1,"RNA-seq, refers to: ZNF790 mRNA",,concentration not given,relative to: DMSO,log2 fold change,-1.31
OC[C@H]1O[C@@H]2O[C@H]3[C@H](O)[C@@H](O)[C@@H](O[C@H]4[C@H](O)[C@@H](O)[C@@H](O[C@H]5[C@H](O)[C@@H](O)[C@@H](O[C@H]6[C@H](O)[C@@H](O)[C@@H](O[C@H]7[C@H](O)[C@@H](O)[C@@H](O[C@H]1[C@H](O)[C@H]2O)O[C@@H]7CO)O[C@@H]6CO)O[C@@H]5CO)O[C@@H]4CO)O[C@@H]3CO,LuxR,Escherichia coli sensor,,20 µM,higher = stronger induction,bioluminescence induction,808 ± 75 RLU
O=C(N/N=C/c1cc[n+](Cc2ccccc2)c2ccccc12)c1ccc2ccc3ccc(C(=O)N/N=C/c4cc[n+](Cc5ccccc5)c5ccccc45)nc3c2n1,22CTA telomeric G4-DNA antiparallel,FRET melting,,"1 µM, K10 buffer, DNA 0.2 µM",,ΔTm,20.7 ± 1.2 °C
Cc1[nH]nc2c1N=C(c1ccccc1Cl)c1cnc(N3CCOCC3)cc1N2,"L-type calcium channel dihydropyridine site, rat",radioligand binding,,10 µM,,inhibition,32%
O=C(CCCCCCc1ccccc1)c1ncc(-c2ccc(CBr)cn2)o1,fatty-acid amide hydrolase (mouse),"refers to: AEA, OEA, PEA levels","mouse, brain","i.p., dose not given",,duration of inhibition,> 6 h
Cn1ccc2cc(-n3c(=O)[nH]c4sc5c(c4c3=O)CCCC5)ccc21,mouse phorbol ester site,radioligand binding,,10 µM,,inhibition,-6%
O=C(c1ccc(C2CCCCC2)cc1)N1CCCC1,,liver microsome stability,cynomolgus liver microsomes,1 µM,,hepatic clearance,41 mL/min/kg
O=C(N/N=C/c1cc[n+](Cc2ccccc2)c2ccccc12)c1ccc2ccc(C(=O)N/N=C/c3cc[n+](Cc4ccccc4)c4ccccc34)nc2n1,22CTA telomeric G4-DNA antiparallel,FRET melting,,"1 µM, K10 buffer, DNA 0.2 µM, with: ds26 10 µM",,ΔTm,16.8 ± 0.6 °C
COc1c(Cl)cccc1Nc1c(-c2ccncc2C#C[C@@]2(C)CCCN2C(=O)/C=C/CN(C)C)[nH]c2c1C(=O)NCC2,DUSP4 human,"cysteine engagement, chemoproteomic profiling, refers to: DUSP4 Cys12 peptide",NCI-H2073,"10 µM, 2 h",relative to: DMSO,log2 fold change,1.47
CC(C)Oc1cc(Cl)ccc1CNc1cc(-c2ccccc2)nc2ncnn12,endogenous β-adrenergic receptors,"cAMP level, cAMP GloSensor",mock-transfected cells,"10 nM, with: isoprenaline 30 nM",higher = more cAMP,cAMP luminescence,22200 a.u. and 25000 a.u. and 27400 a.u.
O=C(N/N=C/c1ccc2c(ccc[n+]2Cc2ccccc2)c1)N/N=C/c1ccc2c(ccc[n+]2Cc2ccccc2)c1,22CTA telomeric G4-DNA antiparallel,FRET melting,,"1 µM, K10 buffer, DNA 0.2 µM, with: ds26 10 µM",,ΔTm,9.3 ± 0.2 °C
O=C(NCc1cccc(Cl)c1)c1ccc([C@H]2[C@@H](F)[C@@H](F)C[C@@H](F)[C@H]2F)cc1,,liver microsome stability,cynomolgus liver microsomes,1 µM,,hepatic clearance,7.4 mL/min/kg
C[n+]1cccc2cc(/C=N/NC(=O)c3cc(C(=O)N/N=C/c4ccc5c(ccc[n+]5C)c4)ncn3)ccc21,22CTA telomeric G4-DNA antiparallel,FRET melting,,"1 µM, K10 buffer, DNA 0.2 µM, with: ds26 10 µM",,ΔTm,1.9 ± 0.6 °C
c1ccc(CSc2nc3ccccc3cc2CNCCC2CCN(C3CCCC3)CC2)cc1,electron transport chain,"proton pumping, ACMA quenching",Pseudomonas aeruginosa inverted membrane vesicles,"32 µg/mL, with: NADH",,inhibition,77%

# A few entries again:
Structure (SMILES),tested on,test,system,conditions,scale,quantity,result
O=C(N/N=C/c1cc[n+](Cc2ccccc2)c2ccccc12)c1ccc2ccc3ccc(C(=O)N/N=C/c4cc[n+](Cc5ccccc5)c5ccccc45)nc3c2n1,22CTA telomeric G4-DNA antiparallel,FRET melting,,"1 µM, K10 buffer, DNA 0.2 µM",,ΔTm,20.7 ± 1.2 °C
COc1c(Cl)cccc1Nc1c(-c2ccncc2C#C[C@@]2(C)CCCN2C(=O)/C=C/CN(C)C)[nH]c2c1C(=O)NCC2,DUSP4 human,"cysteine engagement, chemoproteomic profiling, refers to: DUSP4 Cys12 peptide",NCI-H2073,"10 µM, 2 h",relative to: DMSO,log2 fold change,1.47
Cc1cn(CC(=O)N(CC(=O)N[C@H]2CCC[C@@H]2N(CC(=O)N[C@H]2COC[C@@H]2N(CC(=O)N[C@H]2COC[C@@H]2N(CC(=O)N[C@H]2COC[C@@H]2N(CC(=O)NCCOCCOCC(N)=O)C(=O)Cn2cnc3c(N)ncnc32)C(=O)Cn2cc(C)c(=O)[nH]c2=O)C(=O)Cn2cnc3c(N)ncnc32)C(=O)Cn2cnc3c(=O)[nH]c(N)nc32)[C@H]2CCC[C@@H]2NC(=O)CN(C(=O)Cn2cnc3c(=O)[nH]c(N)nc32)[C@H]2CCC[C@@H]2NC(=O)CN(C(=O)Cn2cc(C)c(=O)[nH]c2=O)[C@H]2COC[C@@H]2NC(=O)CN(C(=O)Cn2cnc3c(N)ncnc32)[C@H]2COC[C@@H]2NC(=O)CN(C(=O)Cn2cnc3c(=O)[nH]c(N)nc32)[C@H]2COC[C@@H]2N)c(=O)[nH]c1=O,mismatched RNA TU,"duplex formation, UV melting",,,relative to: complementary RNA,ΔTm,-19.7 °C
O=C(c1ccc(C2CCCCC2)cc1)N1CCCC1,,liver microsome stability,cynomolgus liver microsomes,1 µM,,hepatic clearance,41 mL/min/kg
